Results of several laboratories.
Protocols differ between the studies behind these lines. pEC50, pIC50: −log10 of the molar value. ≈ marks a conversion by molar mass, not a printed value.
Sequence of UniProt P04062 (whole entry, unmodified, looked up): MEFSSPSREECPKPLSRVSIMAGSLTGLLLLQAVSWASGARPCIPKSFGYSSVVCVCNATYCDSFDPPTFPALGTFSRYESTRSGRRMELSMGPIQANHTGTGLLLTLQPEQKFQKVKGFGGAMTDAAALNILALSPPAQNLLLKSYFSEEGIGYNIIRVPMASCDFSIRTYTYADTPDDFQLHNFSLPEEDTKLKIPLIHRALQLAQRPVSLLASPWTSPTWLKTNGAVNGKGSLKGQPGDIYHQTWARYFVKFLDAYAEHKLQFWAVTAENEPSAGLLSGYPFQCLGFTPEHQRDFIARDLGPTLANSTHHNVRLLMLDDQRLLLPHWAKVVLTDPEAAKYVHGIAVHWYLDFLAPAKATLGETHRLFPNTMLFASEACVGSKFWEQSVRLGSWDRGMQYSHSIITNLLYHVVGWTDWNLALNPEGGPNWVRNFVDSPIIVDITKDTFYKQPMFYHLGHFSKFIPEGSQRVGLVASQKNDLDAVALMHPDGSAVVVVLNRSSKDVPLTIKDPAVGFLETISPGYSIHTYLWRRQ

`CN1CCCNC(=O)c2cccc(c2)C(=O)NCCCN(C)CCCNc2cccc3c2C(=O)c2cccc(c2C3=O)NCCC1` — result for “log2 fold change”: -1.89 (SAS; RNA-Seq, measured: EIF2S3 mRNA; 1 µM, 24 h; baseline: untreated cells).
For `Cc1ncsc1-c1ccc(C(C)NC(=O)C2CC(O)CN2C(=O)C(NC(=O)CCCCCCCCCCN2CCCC(Nc3ncc(Cl)c(Nc4ccccc4S(=O)(=O)C(C)C)n3)C2)C(C)(C)C)cc1` (centres unmarked), “log2 fold change” read -1.48 (22Rv1; RNA-seq, measured: TRAM1L1 mRNA; concentration not given; baseline: DMSO).
`CC1CN(CCOCCSc2ccc(Cl)cc2)CC(C)O1.O=C(O)C(=O)O` (centres unmarked) gave a relative translation of 112% (Trypanosoma cruzi; reporter mRNA translation, inhibitor, measured: capped polyadenylated Renilla luciferase mRNA; cell-free extract; concentration not given; baseline: control RNA).
With `CC1=C[C@@H](O/C=C2/C(=O)O[C@H]3c4ccccc4C[C@@H]23)OC1=O` the pEC50 was 8.32 (Phelipanche ramosa; seed germination, stimulant; seeds).
`CNS(=O)(=O)Nc1nccc(Cc2c(C)c3ccc(Oc4ncccc4F)cc3oc2=O)c1F` gave a pIC50 of 8.34 (KU-19-19; cell viability; 7 days).
Under “percent of control”, `C=CC(=O)Nc1cccc(Cn2ncc3cnc(Nc4cnn(CCOC)c4)nc32)c1` is recorded as 23% (PRP4 human; binding, KINOMEscan; 100 nM; lower = stronger binding).
For `Nc1ncc(-c2cc(-c3cnn(CC(F)(F)F)c3)ncc2F)nc1C(=O)NC1CNCC(F)C1` (centres unmarked), the remaining binding was 100% (SGK; KINOMEscan competition binding; 1 µM; baseline: DMSO control).
The pIC50 of `OC[C@@H]1[C@@H](O)[C@H](O)[C@@H](O)CN1CCCCCOCc1ccc(-c2ccccc2)c(F)c1` is reported as 6.70 (GBA1 (Homo sapiens, UniProt P04062, R534H); inhibitor, 4MU-β-D-glucopyranoside; added: 4MU-β-D-glucopyranoside).
For `CC(C)c1ccc(N(C)c2ccc3c(c2)OCC[C@H]3CNc2cnccc2C(=O)O)cc1`, the pIC50 was 8.13 (DV-90; cell viability, CellTiter-Glo; 7 days).
`Cc1onc(-c2ccccc2)c1-c1ccc(S(=O)(=O)Cl)cc1`: “pseudo-first-order rate constant” 1.7 h⁻¹ (reaction with N-acetyl-lysine, HPLC-MS; pH 10.2, added: N-α-acetyl-lysine).
With `COc1ccc(CN2CCCC(N3CCN(c4cccc(Cl)c4)CC3)C2)cc1OC` (centres unmarked) the relative translation was 98.7% (Trypanosoma cruzi; reporter mRNA translation, inhibitor, measured: capped polyadenylated Renilla luciferase mRNA; cell-free extract; concentration not given; baseline: control RNA).
The MIC50 of `C=C(NC(=O)c1csc(-c2nc3c(cc2O)-c2nc(cs2)C(=O)NC(C(C)O)C(=O)NC(=C(C)OC)c2nc(cs2)C(=O)NC2c4nc(cs4)C(=O)NC(COC(=O)c4c5c6c(cccc6n4O)COC(=O)C(OC4CC(C)(O)C(N(C)C)C(C)O4)C2OC5)c2nc-3cs2)n1)C(N)=O` (centres unmarked) is reported as 7.8 ng/mL (≈ 5.43 nM) (Staphylococcus epidermidis; MRSE; 10 isolates).
Under “log2 fold change”, `COC1CN([C@H]2CC[C@H]([C@@]3(C)Oc4c(Cl)cc(C(=O)NCc5c(SC)cc(C)[nH]c5=O)c(C)c4O3)CC2)C1` is recorded as 0.0495 (RNA-seq, measured: BTBD11 mouse homolog; mouse, HT-1376 xenograft, whole blood; dose not given; baseline: vehicle).
The fold regulation of `CCN(CC)CC(=O)Nc1cccc(-n2cc(-c3ccc4ccc(-c5cn(-c6cccc(NC(=O)CN(CC)CC)c6)nn5)cc4c3)nn2)c1` is reported as -1.11 (RCC4; PCR angiogenesis array, measured: EPHB4; 5 x IC50, 2 h, normoxia; baseline: untreated).

Excerpt of the above:
`Cc1onc(-c2ccccc2)c1-c1ccc(S(=O)(=O)Cl)cc1`: “pseudo-first-order rate constant” 1.7 h⁻¹ (reaction with N-acetyl-lysine, HPLC-MS; pH 10.2, added: N-α-acetyl-lysine).
With `COc1ccc(CN2CCCC(N3CCN(c4cccc(Cl)c4)CC3)C2)cc1OC` (centres unmarked) the relative translation was 98.7% (Trypanosoma cruzi; reporter mRNA translation, inhibitor, measured: capped polyadenylated Renilla luciferase mRNA; cell-free extract; concentration not given; baseline: control RNA).
